Results pooled from the literature.
Protocols differ between the studies behind these lines.
EGFR: Epidermal growth factor receptor (EGFR, Homo sapiens, UniProt P00533)

Compound | target | assay | system | conditions | inhibition [%]
CS(C)(=O)=Nc1ccc(-c2ccc(-c3nc4cc(O[C@@H]5CO[C@H]6[C@@H]5OC[C@H]6O)[nH]c4cc3F)cc2)cc1 | EGFR | enzyme activity, inhibitor |  | 10 µM | -12
CC(C)[C@H]1NC(=O)C[C@H]2/C=C/CCSSC[C@@H](NC1=O)C(=O)N[C@H](Cc1cccc3ccccc13)C(=O)NCC(=O)O2 | Epidermal growth factor receptor (EGFR, Homo sapiens, UniProt P00533, T790M) | enzyme activity, inhibitor |  | 10 µM | -1.9
O=C(O)c1ccccc1/C=N/Nc1nc(-c2ccccc2Cl)cs1 | EGFR | enzyme activity, inhibitor |  | 1 µM | -1.7
N[C@H](C(=O)N1CCCC1)C1CCN(c2nccc3c(-c4ncc(Cl)cc4Cl)cccc23)CC1 | EGFR | cell-free assay |  | 10 µM | 6
CN[C@@H]1[C@H](O)[C@H](NC)[C@H]2O[C@]3(O)[C@H](O[C@@H]2[C@H]1O)O[C@H](C)C[C@H]3NC(=O)Cc1ccc(Cl)cn1 | EGFR |  |  | 10 µM | -15
C[C@H](NCc1ccc(-c2ccc(C(F)(F)F)cc2)cc1)C(N)=O | EGFR | cell-free assay, competition with immobilised ligand |  | 1 µM | 0
C=CC(=O)Nc1cc(-c2nn(C3CCC(N4CCN(C(C)=O)CC4)CC3)c3ncnc(N)c23)ccc1Oc1ccccc1 (centres unmarked) | EGFR | inhibitor, KiNativ profiling | biochemical | 2 µM | 24.9
O=C(CN1CN(c2ccccc2)C2(CCN(C(=O)c3cnc4[nH]ncc4c3)CC2)C1=O)NCC(F)(F)F | Epidermal growth factor receptor (EGFR, Homo sapiens, UniProt P00533, del752-759) | inhibitor |  | concentration not given | < 50

Excerpt of the above:
Compound | target | assay | system | conditions | inhibition [%]
C=CC(=O)Nc1cc(-c2nn(C3CCC(N4CCN(C(C)=O)CC4)CC3)c3ncnc(N)c23)ccc1Oc1ccccc1 (centres unmarked) | EGFR | inhibitor, KiNativ profiling | biochemical | 2 µM | 24.9
